Published values of several laboratories.
“And” joins repeats or separate records; there may be more than shown. ± gives the spread as reported.
LCK: Tyrosine-protein kinase Lck (LCK, Homo sapiens, UniProt P06239)
UniProt P06239, sequence (whole entry, looked up): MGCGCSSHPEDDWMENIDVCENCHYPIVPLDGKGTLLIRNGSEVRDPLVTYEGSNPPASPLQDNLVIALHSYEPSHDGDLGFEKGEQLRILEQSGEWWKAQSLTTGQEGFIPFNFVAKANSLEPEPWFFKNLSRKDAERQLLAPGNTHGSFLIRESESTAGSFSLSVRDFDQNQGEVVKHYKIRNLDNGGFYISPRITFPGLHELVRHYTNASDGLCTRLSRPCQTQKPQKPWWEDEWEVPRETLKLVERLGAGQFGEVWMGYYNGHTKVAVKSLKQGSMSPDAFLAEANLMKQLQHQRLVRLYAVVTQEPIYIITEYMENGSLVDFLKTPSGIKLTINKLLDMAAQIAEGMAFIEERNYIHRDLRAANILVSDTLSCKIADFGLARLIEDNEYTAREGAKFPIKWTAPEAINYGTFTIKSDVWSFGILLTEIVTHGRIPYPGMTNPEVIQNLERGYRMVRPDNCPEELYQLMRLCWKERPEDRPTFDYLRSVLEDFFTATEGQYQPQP
Alpha-amylase: Alpha-amylase (Bos taurus, UniProt Q3MHH8)
FFAR4: Free fatty acid receptor 4 (FFAR4, Homo sapiens, UniProt Q5NUL3)
UniProt Q5NUL3, sequence (whole entry, looked up): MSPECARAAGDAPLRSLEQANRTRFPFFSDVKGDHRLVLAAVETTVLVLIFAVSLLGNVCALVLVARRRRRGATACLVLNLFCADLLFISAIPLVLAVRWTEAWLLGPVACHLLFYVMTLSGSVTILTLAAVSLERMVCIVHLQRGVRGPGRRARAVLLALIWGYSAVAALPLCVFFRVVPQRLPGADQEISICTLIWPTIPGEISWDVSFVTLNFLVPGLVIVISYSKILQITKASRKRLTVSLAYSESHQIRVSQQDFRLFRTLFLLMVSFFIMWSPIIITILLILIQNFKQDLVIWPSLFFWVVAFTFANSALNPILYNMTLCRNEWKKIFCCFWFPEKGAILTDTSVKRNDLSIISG
USP51: Ubiquitin carboxyl-terminal hydrolase 51 (USP51, Homo sapiens, UniProt Q70EK9)
UniProt Q70EK9, sequence (whole entry, looked up): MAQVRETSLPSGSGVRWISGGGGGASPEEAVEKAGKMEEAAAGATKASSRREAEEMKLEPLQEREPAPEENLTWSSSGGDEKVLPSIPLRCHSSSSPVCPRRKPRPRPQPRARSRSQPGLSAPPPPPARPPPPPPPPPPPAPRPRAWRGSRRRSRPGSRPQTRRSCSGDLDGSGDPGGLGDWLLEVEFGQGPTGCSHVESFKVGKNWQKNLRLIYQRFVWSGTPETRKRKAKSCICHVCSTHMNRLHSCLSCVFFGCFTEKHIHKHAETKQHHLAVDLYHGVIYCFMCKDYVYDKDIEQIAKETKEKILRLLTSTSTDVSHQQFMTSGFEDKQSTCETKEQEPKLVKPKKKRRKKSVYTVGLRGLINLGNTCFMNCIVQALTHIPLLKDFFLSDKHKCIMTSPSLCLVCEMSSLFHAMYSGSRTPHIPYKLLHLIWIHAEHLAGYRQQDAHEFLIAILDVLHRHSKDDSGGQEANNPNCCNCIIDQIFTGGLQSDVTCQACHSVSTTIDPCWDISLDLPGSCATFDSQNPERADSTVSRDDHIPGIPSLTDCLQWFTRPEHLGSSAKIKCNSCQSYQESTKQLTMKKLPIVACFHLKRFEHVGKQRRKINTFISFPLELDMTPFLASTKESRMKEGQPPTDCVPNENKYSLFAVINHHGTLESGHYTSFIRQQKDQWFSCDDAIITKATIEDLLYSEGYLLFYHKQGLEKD
Trypanothione synthetase: Trypanothione synthetase (Trypanosoma brucei brucei, UniProt Q8IEX1)
UniProt Q96D96, sequence (whole entry, looked up): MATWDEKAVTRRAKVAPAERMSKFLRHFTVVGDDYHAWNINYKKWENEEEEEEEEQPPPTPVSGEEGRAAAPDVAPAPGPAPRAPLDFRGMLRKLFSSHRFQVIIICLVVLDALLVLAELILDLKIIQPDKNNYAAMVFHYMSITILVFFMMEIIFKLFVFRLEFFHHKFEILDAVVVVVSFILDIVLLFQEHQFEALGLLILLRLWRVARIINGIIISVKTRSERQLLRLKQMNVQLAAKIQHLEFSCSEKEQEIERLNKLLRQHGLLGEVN
UniProt P61073, sequence (whole entry, looked up): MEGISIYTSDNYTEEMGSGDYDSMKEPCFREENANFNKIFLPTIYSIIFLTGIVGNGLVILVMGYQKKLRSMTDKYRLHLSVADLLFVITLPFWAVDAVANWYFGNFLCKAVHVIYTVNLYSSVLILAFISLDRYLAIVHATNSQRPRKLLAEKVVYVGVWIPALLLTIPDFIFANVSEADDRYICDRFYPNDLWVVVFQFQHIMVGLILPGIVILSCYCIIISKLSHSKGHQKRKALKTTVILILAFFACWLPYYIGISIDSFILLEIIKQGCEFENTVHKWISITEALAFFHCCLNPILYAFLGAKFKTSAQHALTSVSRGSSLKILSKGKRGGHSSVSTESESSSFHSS
UniProt Q16853, sequence (whole entry, looked up): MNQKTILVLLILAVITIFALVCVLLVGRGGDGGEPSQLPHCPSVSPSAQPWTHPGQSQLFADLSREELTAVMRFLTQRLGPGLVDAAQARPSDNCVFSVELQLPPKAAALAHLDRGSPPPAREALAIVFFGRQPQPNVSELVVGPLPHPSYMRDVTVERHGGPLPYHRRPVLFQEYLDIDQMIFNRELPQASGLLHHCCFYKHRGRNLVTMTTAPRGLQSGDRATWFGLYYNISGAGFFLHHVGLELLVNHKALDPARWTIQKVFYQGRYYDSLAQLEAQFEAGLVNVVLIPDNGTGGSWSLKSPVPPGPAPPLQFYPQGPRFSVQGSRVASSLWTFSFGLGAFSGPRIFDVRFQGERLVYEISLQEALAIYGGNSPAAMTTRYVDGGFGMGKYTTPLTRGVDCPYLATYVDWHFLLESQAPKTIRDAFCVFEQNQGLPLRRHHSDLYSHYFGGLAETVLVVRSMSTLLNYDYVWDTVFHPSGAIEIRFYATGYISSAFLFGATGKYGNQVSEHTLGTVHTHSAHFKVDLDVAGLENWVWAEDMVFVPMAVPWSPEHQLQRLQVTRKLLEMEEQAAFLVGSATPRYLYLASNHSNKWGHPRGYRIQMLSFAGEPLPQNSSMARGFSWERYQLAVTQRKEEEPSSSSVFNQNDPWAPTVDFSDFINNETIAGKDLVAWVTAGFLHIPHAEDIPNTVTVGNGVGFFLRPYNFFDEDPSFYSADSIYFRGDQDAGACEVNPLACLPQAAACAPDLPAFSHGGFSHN
UniProt O75460, sequence (whole entry, looked up): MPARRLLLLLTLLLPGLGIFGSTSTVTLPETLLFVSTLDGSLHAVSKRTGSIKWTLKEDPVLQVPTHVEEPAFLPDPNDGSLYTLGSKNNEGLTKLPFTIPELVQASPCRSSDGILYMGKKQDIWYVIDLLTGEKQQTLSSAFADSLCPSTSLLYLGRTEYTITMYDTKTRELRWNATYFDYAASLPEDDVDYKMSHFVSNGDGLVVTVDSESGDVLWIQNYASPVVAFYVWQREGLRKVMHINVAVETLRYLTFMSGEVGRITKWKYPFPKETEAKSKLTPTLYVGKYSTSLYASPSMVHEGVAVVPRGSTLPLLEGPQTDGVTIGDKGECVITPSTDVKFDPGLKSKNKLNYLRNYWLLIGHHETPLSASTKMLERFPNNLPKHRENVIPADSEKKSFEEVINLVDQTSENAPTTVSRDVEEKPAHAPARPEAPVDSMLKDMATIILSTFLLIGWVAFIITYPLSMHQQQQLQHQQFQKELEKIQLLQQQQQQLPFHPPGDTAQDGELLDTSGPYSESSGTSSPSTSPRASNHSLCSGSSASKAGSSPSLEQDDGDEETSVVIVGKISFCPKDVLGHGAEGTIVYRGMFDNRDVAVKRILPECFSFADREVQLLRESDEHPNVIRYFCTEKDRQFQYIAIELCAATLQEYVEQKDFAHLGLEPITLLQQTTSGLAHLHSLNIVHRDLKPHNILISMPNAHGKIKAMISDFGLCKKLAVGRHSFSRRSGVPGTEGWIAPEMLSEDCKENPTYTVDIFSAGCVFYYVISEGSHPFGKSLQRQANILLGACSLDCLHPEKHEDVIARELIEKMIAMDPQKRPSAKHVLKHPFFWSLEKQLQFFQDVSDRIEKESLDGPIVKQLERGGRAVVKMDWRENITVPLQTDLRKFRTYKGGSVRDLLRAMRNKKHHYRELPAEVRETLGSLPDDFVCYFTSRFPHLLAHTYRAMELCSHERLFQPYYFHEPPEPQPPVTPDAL
UniProt Q6W5P4, sequence (whole entry, looked up): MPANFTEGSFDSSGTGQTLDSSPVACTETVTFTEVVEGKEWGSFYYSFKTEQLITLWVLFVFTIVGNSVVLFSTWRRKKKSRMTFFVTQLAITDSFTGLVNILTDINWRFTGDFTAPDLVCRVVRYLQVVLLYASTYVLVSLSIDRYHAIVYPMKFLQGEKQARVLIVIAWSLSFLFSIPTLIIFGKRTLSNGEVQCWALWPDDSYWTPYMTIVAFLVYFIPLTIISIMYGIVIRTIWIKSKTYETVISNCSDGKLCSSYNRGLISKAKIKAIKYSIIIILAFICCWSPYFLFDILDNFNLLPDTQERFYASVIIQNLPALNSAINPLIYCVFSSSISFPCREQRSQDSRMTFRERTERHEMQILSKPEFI
UniProt Q8N884, sequence (whole entry, looked up): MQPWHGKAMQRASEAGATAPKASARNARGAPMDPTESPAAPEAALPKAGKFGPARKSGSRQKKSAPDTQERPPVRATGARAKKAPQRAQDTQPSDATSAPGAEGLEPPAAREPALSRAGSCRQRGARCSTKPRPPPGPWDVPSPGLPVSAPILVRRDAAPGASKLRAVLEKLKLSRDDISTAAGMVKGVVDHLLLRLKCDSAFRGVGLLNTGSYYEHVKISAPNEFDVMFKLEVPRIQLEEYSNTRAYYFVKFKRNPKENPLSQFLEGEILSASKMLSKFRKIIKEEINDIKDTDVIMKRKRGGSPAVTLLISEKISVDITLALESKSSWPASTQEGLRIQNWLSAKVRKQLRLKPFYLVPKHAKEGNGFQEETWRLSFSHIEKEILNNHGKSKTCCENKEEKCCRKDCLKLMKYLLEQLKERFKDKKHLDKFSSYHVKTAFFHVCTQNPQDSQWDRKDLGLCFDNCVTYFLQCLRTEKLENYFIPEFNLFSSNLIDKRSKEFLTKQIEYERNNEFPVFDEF

Cc1ccc(CNC(=O)[C@H](CCc2ccccc2)NC(=O)[C@H](CCc2ccccc2)NC(=O)[C@H](CCc2ccccc2)NC(=O)c2cnc(C)cn2)cc1 — inhibition (chymotrypsin; enzyme activity, inhibitor; 100 µM): -4%
Cc1nc(Nc2ncc(C(=O)Nc3c(C)cccc3Cl)s2)cc(N2CC[C@H](O)C2)n1 — inhibition (LCK; 0.001 µM): 92%
CC1=NN(c2ccccn2)C(=O)C1=NNc1ccc(S(N)(=O)=O)cc1 — inhibition (Alpha-amylase; enzyme activity, inhibitor, glucose oxidase; 100 µg/mL, together with: dextrin): 11.7%
CN1CCN(c2cc(-c3ccncc3)c(-c3ccc4ccccc4c3)nn2)CC1 — inhibition (PTH2R (Homo sapiens, UniProt P49190); antagonist, FLIPR; 10 µM): 55.1%
CCOC(=O)C[n+]1cccc(-c2nn(-c3ccccc3)cc2/C=C(\NC(=O)c2ccccc2)C(=O)NC(CC(N)=O)C(=O)O)c1.[Br-] (stereo not drawn) — inhibition (CXCR4 (Homo sapiens, UniProt P61073); arrestin recruitment, DiscoverX; 30 µM; relative to: control): 0% and -0.37%
Cn1cc(-c2cnc3ccc(NC(=O)Nc4ccc(F)c(Br)c4)cc3n2)cn1 — inhibition (MAP3K12 (Homo sapiens, UniProt Q12852); kinase binding, KiNativ profiling, item: Lys2 peptide; PANC-1 lysate; 7.5 µM): 1.6%
CC1=NN(c2cc(Cl)ccc2Cl)C(=O)C1=NNc1ccc(S(N)(=O)=O)cc1 — inhibition (Alpha-amylase; enzyme activity, inhibitor, glucose oxidase; 200 µg/mL, together with: dextrin): 18.6%
COc1cc(C(=O)OCCCN2CCCN(CCCOC(=O)c3cc(OC)c(OC)c(OC)c3)CC2)cc(OC)c1OC — inhibition (Equilibrative nucleoside transporter 2 (Homo sapiens, UniProt Q14542); nucleoside transport, inhibitor; MDCKII cells expressing ENT2; 79.4 µM, together with: adenosine): 95.6% and 95.8%
CCCNc1cc(=O)[nH]c(=O)[nH]1 — inhibition (FFAR4; antagonist, β-arrestin recruitment; CHO cells; 10 µM): 21 ± 3%
O=C(Nc1cccc2c(=O)cc(-c3nnn[nH]3)oc12)c1ccc(OCCCCc2ccccc2)cc1 — inhibition (Volume-regulated anion channel subunit LRRC8C, part LRRC8A IL1 chimera (LRRC8C, Homo sapiens, UniProt Q8TDW0, L136K); ion current, inhibitor, whole-cell patch clamp; HCT LRRC8-/- cells; 1 µM, -100 mV): 66.1% and 51.7% and 67.5% and 71.7% and 70.7%
O=C(O)c1cc(O)c(O)c(O)c1 — inhibition (USP51; inhibitor; 1 µM, 1 h preincubation, together with: Ub-AMC 250 nM): 100%
CNC(=O)CN1C(=O)Cc2c([nH]c3ccc(Br)cc23)-c2ccc(Cl)cc21 — inhibition (Trypanothione synthetase; enzyme activity, inhibitor, BIOMOL Green; 30 µM): 44.4 ± 3.6%
CC1=NOC(=O)C1=NNc1ccc(S(N)(=O)=O)cc1 — inhibition (Alpha-amylase; enzyme activity, inhibitor, glucose oxidase; 50 µg/mL, together with: dextrin): 9.4%
CC(C)(C)NC(=O)CN1C(=O)Cc2c([nH]c3ccc(Br)cc23)-c2ccc(Cl)cc21 — inhibition (Trypanothione synthetase; enzyme activity, inhibitor, BIOMOL Green; 30 µM): 10.9 ± 6.8%
C#Cc1cc(-c2cc(Nc3nc(N[C@@H](C)c4ccc(F)cn4)ncc3Cl)n[nH]2)ccc1C=O — inhibition (ERN1 (Homo sapiens, UniProt O75460); enzyme activity, inhibitor; 0.2 µM): 2.66%
O=C(CN1C(=O)Cc2c([nH]c3ccc(Br)cc23)-c2ccc(Cl)cc21)NC(CO)(CO)CO — inhibition (Trypanothione synthetase; enzyme activity, inhibitor, BIOMOL Green; 30 µM): 12.6 ± 7%
CC1=NNC(=S)NC(=O)C1/N=N/c1ccc(S(N)(=O)=O)cc1 (stereo not drawn) — inhibition (Alpha-amylase; enzyme activity, inhibitor, glucose oxidase; 10 µg/mL, together with: dextrin): 11.9 ± 0.000742%
CCCCCCCCCCNc1cc(=O)[nH]c(=O)[nH]1 — inhibition (FFAR4; antagonist, β-arrestin recruitment; CHO cells; 10 µM, together with: 4 µM TUG-891): 32 ± 9%
O=C(O)C1=CC(=C(c2ccc(O)c(C(=O)O)c2)c2ccc(O)c(C(=O)O)c2)C=CC1=O — inhibition (Catenin beta-1, armadillo repeat domain (Mus musculus, UniProt Q02248); luminescence; 20 µM): 30%
CC1=NN(c2ccccc2)C(=O)C1=NNc1ccc(S(N)(=O)=O)cc1 — inhibition (Alpha-amylase; enzyme activity, inhibitor, glucose oxidase; 200 µg/mL, together with: dextrin): 25.3%
Cc1nn(-c2nc3c(F)cc(F)cc3s2)c(O)c1C(c1cccc(C(F)(F)F)c1)c1c(C)nn(-c2nc3c(F)cc(F)cc3s2)c1O — inhibition (Cyclic GMP-AMP synthase, catalytic domain; with DNA (CGAS, Homo sapiens, UniProt Q8N884); cGAS phase separation, inhibitor; 3.125 µM): 28.4%
CC(C)c1noc2ncc(C(=O)c3ccccc3O)cc12 — inhibition (HVCN1 (Homo sapiens, UniProt Q96D96); ion current, inhibitor, whole-cell patch clamp; 10 µM): 0.75% and 4.22% and 3.74% and 4.12% and 2.92%
O=c1cc(-c2ccccc2)oc2cc(O)c(O)c(O)c12 — inhibition (USP51; inhibitor; 1 µM, 1 h preincubation, together with: Ub-AMC 250 nM): 75%
CC(C)(C)c1ccc(CCNc2cc(=O)[nH]c(=O)[nH]2)cc1 — inhibition (FFAR4; antagonist, β-arrestin recruitment; CHO cells; 10 µM, together with: 4 µM TUG-891): -8 ± 12%
CC[C@]12CCCN3CCc4c([nH]c5ccccc45)[C@]31N(Cc1cn(Cc3ccccc3)nn1)C(=O)C2 — inhibition (Neuropeptide S receptor, isoform B (NPSR1, Homo sapiens, UniProt Q6W5P4); beta-arrestin recruitment, antagonist, PathHunter chemiluminescence; 20 µM, together with: agonist at EC80): 30%
NNC(=O)CN1C(=O)Cc2c([nH]c3ccc(Br)cc23)-c2ccc(Cl)cc21 — inhibition (Trypanothione synthetase; enzyme activity, inhibitor, BIOMOL Green; 30 µM): 8.3 ± 5.8%
O=c1cc(NCCc2ccc(Cl)cc2)[nH]c(=O)[nH]1 — inhibition (FFAR4; antagonist, β-arrestin recruitment; CHO cells; 10 µM, together with: 4 µM TUG-891): 10 ± 4%
O=C(NO)c1ccc(CN2CCCCc3ccccc32)c(F)c1 — inhibition (CHRM2 (Homo sapiens, UniProt P08172); radioligand binding, radioligand displacement; 10 µM, mean of replicates): -5.13%
CC1=NCCNC(=O)C1=NNc1ccc(S(N)(=O)=O)cc1 — inhibition (Alpha-amylase; enzyme activity, inhibitor, glucose oxidase; 50 µg/mL, together with: dextrin): 10.9%
Cc1cc(-c2ccnc3[nH]cc(F)c23)cc(F)c1[C@@]1(O)[C@H](C)CN(C(=O)CN)C[C@@H]1C — inhibition (ROCK1 (Homo sapiens, UniProt Q13464); ATP probe binding, KiNativ; HEK293T cell lysate; 10 µM): 43.2%
CC1=NN(c2ccc(Cl)cc2)C(=O)C1=NNc1ccc(S(N)(=O)=O)cc1 — inhibition (Alpha-amylase; enzyme activity, inhibitor, glucose oxidase; 100 µg/mL, together with: dextrin): 9.02%
CN(C(=O)n1cnc(-c2ccc[n+]([O-])c2)c1)C1CCCCC1 — inhibition (Adra1b (Rattus norvegicus, UniProt P15823); 10 µM): 3.12%
COc1ccc(F)cc1C(=O)NCc1ccc(-c2nn([C@@H](C)C(F)(F)F)c(N)c2C(N)=O)cc1 — inhibition (STK39 (Homo sapiens, UniProt Q9UEW8); target engagement, competitive chemoproteomics; human PBMCs; 0.01 µM): 34%
CSCCCNc1cc(=O)[nH]c(=O)[nH]1 — inhibition (FFAR4; antagonist, β-arrestin recruitment; CHO cells; 10 µM): 25 ± 10%
CC1=NNC(=O)C1=NNc1ccc(S(N)(=O)=O)cc1 — inhibition (Alpha-amylase; enzyme activity, inhibitor, glucose oxidase; 10 µg/mL, together with: dextrin): 8.6372 ± 0.000273%
C[C@H]1c2nn(C)cc2[C@H]2C[C@@H]1N(Cc1ccccc1)C[C@]2(C)O — inhibition (Oprd1 (Rattus norvegicus, UniProt P33533); binding; rat brain; 1 µM, together with: [3H]DPDPE): 0%
CCc1nn(C)c2nc(-c3ccc(C(=O)O)cc3)nc(NCc3ccc(F)cc3)c12 — inhibition (Dual specificity calcium/calmodulin-dependent 3',5'-cyclic nucleotide phosphodiesterase 1B (Homo sapiens, UniProt Q01064); enzyme activity; 10 µM, together with: [3H]cGMP): 18%
CCN1CCN(Cc2ccc(NC(=O)c3ccc(C)c(/C=C/c4cnc5[nH]ccc5c4OC)c3)cc2C(F)(F)F)CC1 — inhibition (MAST3 (Homo sapiens, UniProt O60307); A-375; 0.05 µM): -14.2%
O=c1cc(NCCCc2ccccc2)[nH]c(=O)[nH]1 — inhibition (FFAR4; antagonist, β-arrestin recruitment; CHO cells; 10 µM): 14 ± 16%
CC[C@@H]1[C@H](F)C(=O)N[C@@H]1COc1nccc2cc(C(N)=O)c(OC)cc12 — inhibition (CAMKK2 (Homo sapiens, UniProt Q96RR4); ATP-site probe binding, ActivX profiling; THP-1 cell lysate; 0.01 mM, Lys1 site): -0.8%
COc1cc(C(=O)NS(=O)(=O)c2ccccc2C)ccc1Cc1cn(C)c2ccc(NC(=O)OC3CCCC3)cc12 — inhibition (LRRC8A/LRRC8C (Homo sapiens, UniProt Q8IWT6+Q8TDW0, M48D/T48D); ion current, inhibitor, whole-cell patch clamp; HCT116 LRRC8 knockout, transfected; 100 µM, +100 mV, mutant T48D/M48D): 71.5%
CCN(CC)c1ccc(C2Nc3ccc(C(=O)c4ccccc4)cc3NC3=C2C(=O)CC(C)(C)C3)cc1 (stereo not drawn) — inhibition (benzodiazepine site, rat brain; binding; 10 µM): 22%
Cc1ccc(C(=O)Nc2ccc3ccccc3c2)o1 — inhibition (CACNA1G (Homo sapiens, UniProt O43497); ion current, whole-cell patch-clamp; 10 µM, hCav3.1): 11.7%
NC/C(=C\F)COc1cccc(Cn2c(=S)[nH]c(=O)c3[nH]cnc32)c1 — inhibition (AOC3 (Homo sapiens, UniProt Q16853); H2O2 production, Amplex Red; 10 µM, recombinant human enzyme): 100%
O=c1cc(NCCc2cccc(Cl)c2)[nH]c(=O)[nH]1 — inhibition (FFAR4; antagonist, β-arrestin recruitment; CHO cells; 10 µM): 7 ± 5%
NC(=O)CN1C(=O)Cc2c([nH]c3ccc(Br)cc23)-c2ccc(Cl)cc21 — inhibition (Trypanothione synthetase; enzyme activity, inhibitor, BIOMOL Green; 30 µM): 14.5 ± 5.5%
CCCCCCCCCNc1cc(=O)[nH]c(=O)[nH]1 — inhibition (FFAR4; antagonist, β-arrestin recruitment; CHO cells; 10 µM, together with: 4 µM TUG-891): 26 ± 2%
[2H]c1cc(C)c(NC(=O)c2cnc(Nc3cc(N4CCCCC4)nc(C)n3)s2)c(Cl)c1 — inhibition (LCK; 0.01 µM): > 90%

Excerpt of the above:
CCCCCCCCCCNc1cc(=O)[nH]c(=O)[nH]1 — inhibition (FFAR4; antagonist, β-arrestin recruitment; CHO cells; 10 µM, together with: 4 µM TUG-891): 32 ± 9%
O=C(Nc1cccc2c(=O)cc(-c3nnn[nH]3)oc12)c1ccc(OCCCCc2ccccc2)cc1 — inhibition (Volume-regulated anion channel subunit LRRC8C, part LRRC8A IL1 chimera (LRRC8C, Homo sapiens, UniProt Q8TDW0, L136K); ion current, inhibitor, whole-cell patch clamp; HCT LRRC8-/- cells; 1 µM, -100 mV): 66.1% and 51.7% and 67.5% and 71.7% and 70.7%
NC(=O)CN1C(=O)Cc2c([nH]c3ccc(Br)cc23)-c2ccc(Cl)cc21 — inhibition (Trypanothione synthetase; enzyme activity, inhibitor, BIOMOL Green; 30 µM): 14.5 ± 5.5%
